Published values collected from several papers.
A part holds a random share of what one study measured.

Sample 1
Target: Histone acetyltransferase KAT6A, winged helix 1, GST fusion (KAT6A, Homo sapiens, UniProt Q92794, residues 1-85)
Technique: protein binding microarray
Form: double-stranded DNA, one strand shown
Matrix: in vitro
Tested at: not given
Setting: 8-mer, flanks averaged, mean of 2 arrays, mostly near background
Baseline: not given
Direction: higher = stronger binding
Target sequence (chain): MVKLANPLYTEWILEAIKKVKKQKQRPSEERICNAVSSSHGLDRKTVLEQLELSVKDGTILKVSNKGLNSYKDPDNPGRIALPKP
`GCCAGAGC` gave an E-score of -0.0119.
With `CTCCGTGC` the E-score was 0.207.
With `CCGTGATA` the E-score was 0.216.
`AATGAGTC` gave an E-score of -0.0376.
`CCAGAAGC` has an E-score of -0.167.
The E-score of `ACATTGCG` is reported as 0.153.
`CTTCTTTA` has an E-score of 0.0513.
`GCCCGAGC` has an E-score of 0.147.
`CCAACGGC` has an E-score of 0.292.
`ATCAGCCA` has an E-score of -0.097.
`GTATCGGA` gave an E-score of 0.229.
`AAGGTGTC` has an E-score of -0.0385.
`CGCGGCCG` gave an E-score of 0.485.
With `ATGCGCGG` the E-score was 0.464.
`ACAATGGT` gave an E-score of -0.0977.
With `ATAGGAAT` the E-score was -0.235.
`GACTAACA` has an E-score of 0.0126.

Sample 2
Target: Sal-like protein 4, full length isoform B (SALL4, Homo sapiens, UniProt Q9UJQ4-2, residues 1-616)
Technique: universal PBM
Form: double-stranded DNA, one strand shown
Matrix: in vitro
Tested at: not given
Setting: 8-mer, flanks averaged, mean of replicates
Direction: higher = stronger binding
Residues (chain): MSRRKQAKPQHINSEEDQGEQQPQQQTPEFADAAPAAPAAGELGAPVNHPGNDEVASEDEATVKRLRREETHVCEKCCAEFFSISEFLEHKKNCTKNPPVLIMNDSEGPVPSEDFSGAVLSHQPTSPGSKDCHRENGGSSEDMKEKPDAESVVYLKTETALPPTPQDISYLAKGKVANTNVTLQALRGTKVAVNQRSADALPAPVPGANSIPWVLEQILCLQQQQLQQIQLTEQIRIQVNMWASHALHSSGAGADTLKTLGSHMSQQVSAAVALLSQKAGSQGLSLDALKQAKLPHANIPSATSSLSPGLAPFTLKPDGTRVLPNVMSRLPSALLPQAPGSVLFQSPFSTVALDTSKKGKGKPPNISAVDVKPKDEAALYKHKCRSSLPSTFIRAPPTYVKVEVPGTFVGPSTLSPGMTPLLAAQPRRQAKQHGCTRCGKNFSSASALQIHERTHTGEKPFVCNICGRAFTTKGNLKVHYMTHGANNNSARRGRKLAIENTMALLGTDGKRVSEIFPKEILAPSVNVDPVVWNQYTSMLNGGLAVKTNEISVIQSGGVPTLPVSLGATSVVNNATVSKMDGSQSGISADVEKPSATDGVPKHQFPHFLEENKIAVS
The E-score of `AGCGCAGC` is reported as -0.2.
`AGAGACAC` has an E-score of -0.0983.
`CGCACTTC` has an E-score of -0.196.
`GACCCTGC` gave an E-score of -0.171.
For `TTCAACAA`, the E-score was 0.212.
`GACTCAAC` gave an E-score of -0.0002.
The E-score of `AGAAAGTC` is reported as 0.0839.
With `AAGTGTCG` the E-score was 0.0623.
For `TAACATGA`, the E-score was 0.162.
`AGCAACCT` has an E-score of -0.163.
`AGACATCG` has an E-score of -0.114.
The E-score of `CCCTACAA` is reported as 0.0462.
For `GACTCCCA`, the E-score was -0.172.
With `AACACTCT` the E-score was 0.085.
`TAGTCTAA` gave an E-score of -0.0226.
The E-score of `ACACAGAA` is reported as -0.0168.
`CGGCCGCA` has an E-score of -0.241.
`AGTGCCTA` gave an E-score of 0.00561.
For `GGGATGAA`, the E-score was -0.116.
`AGCACACC` gave an E-score of -0.227.

Sample 3
Target: RNA binding protein fox-1 homolog 2, RRM domain, GST-SBP tag (RBFOX2, Homo sapiens, UniProt O43251-10, residues 100-194)
Technique: RNA Bind-n-Seq
Form: RNA
Matrix: in vitro
Tested at: 365 nM
Setting: natural RNA segment, single round, ends assumed
Baseline: no-protein control
Direction: higher = stronger binding
Target sequence (chain): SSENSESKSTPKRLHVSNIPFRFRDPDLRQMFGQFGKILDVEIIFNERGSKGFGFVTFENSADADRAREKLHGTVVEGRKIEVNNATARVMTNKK
`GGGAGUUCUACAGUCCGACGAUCGCACAGUUGAUGCUGCUUGGGACACGUUUCUUAGAGGGCUUACAGUAUGUAAAUAAUUGACAUUGGUGUUAACACGACUGUCGGGGAUUCACUGAAAUCCACAUGAUUCAUGGAAUUCUCGGGUGCCAA`: “RBNS enrichment (R)” 0.576.
For `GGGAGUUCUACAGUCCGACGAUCCUCUGUGUAAAGACAGAUUAUUUUCUAGGAUUCAUUCGAAAGCACAUCUUUUAAAUUAAGCCACUGUGCUGCCUUAGAUUCCGUGGGUCAUGAGCCAUGAGUCCUGGGACUGGAAUUCUCGGGUGCCAA`, “RBNS enrichment (R)” read 0.279.
Under “RBNS enrichment (R)”, `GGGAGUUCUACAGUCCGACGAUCCAUCCCACCAGGUCCCUGGACUCACGGCCUUUCCUUCAUUUGCCAUUCACAUUGCUGCUCACAAAACAGAACUCGGUGACUUUGUUUUGAUAUAGUUUUGUGGACCAUCUUGGAAUUCUCGGGUGCCAA` is recorded as 0.37.
`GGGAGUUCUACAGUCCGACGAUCAGGGAAACCUUGAAUUGGGGUGUGUUCUCUAAUCACUUUCCACUGUCUGAGCUUUCCUGACCCCUGUAUUGUAUCCUUGCUCCCAGGGCUCCCUUCAUGGCUUGUGAACUUGGAAUUCUCGGGUGCCAA` — result for “RBNS enrichment (R)”: 0.546.
`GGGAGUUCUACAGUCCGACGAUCAGCAUUGCCCUGCCUGUCUGAAAGGACAGUUUACCUAAUGGUGCCAGCCUCCUUUUGCUUUGGCAAGCUGGAUUUCUCAGAGCCAGCAUGUUGUUUCCAUAACUACUUUGUGGAAUUCUCGGGUGCCAA`: “RBNS enrichment (R)” 1.47.
`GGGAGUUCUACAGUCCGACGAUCGGCUGGAGAGGUGGCUCAGUGGUUAAAGGCACUCACUGCUCUUUCCAAAGGACCUGGUUUGAUUCCCAGCACUCACACGGAGGCUCACUGACCACCUGUAACUCCUGUUCUGGAAUUCUCGGGUGCCAA`: “RBNS enrichment (R)” 0.349.
Under “RBNS enrichment (R)”, `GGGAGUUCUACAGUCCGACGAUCUCGAACUCCUGACCUCAGGUGAUCCGCCUGCCUCGGCCUCCCAAAGUGCUGGGAUUACAGGAGUGAGCCACUGUGCCUGGCCUAUCCCACUUGGUUUUUGACUGAAGGGGUGGAAUUCUCGGGUGCCAA` is recorded as 0.226.
`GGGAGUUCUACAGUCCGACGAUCUGGUGCUGUUUUUAUGAAAACCUCUGAUCCUUGGUGUCCUUUAAUUGAUCUGUUCAACAAAUAUUUACUAAACACUUCUAAGCUAACAUUAGGGCAGUGACUGAGGUGGAUGGAAUUCUCGGGUGCCAA`: “RBNS enrichment (R)” 0.481.
For `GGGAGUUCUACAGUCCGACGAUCGUAGCAGGAGGAUCUGAACUUUUCCUGGAGAGGAGGUGAUCGGGAUGCCAUUUGGCAGCUUAAGCACAUCCUGCCAGCAGGCUUUAAGUGGCUGUUCUAGGCAUAGCCCUUGGAAUUCUCGGGUGCCAA`, “RBNS enrichment (R)” read 0.356.
`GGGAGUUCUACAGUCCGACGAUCACUGUGCUUCUUACUUACUGAUAUCCAGUAACUGGCACUUACUAGGUCUUCAUGAAUGUUUCCUGAGUAAAGGAAGGAGACCAGCAGCUAACCUUAGUUAGAGCCUACCUUGGAAUUCUCGGGUGCCAA`: “RBNS enrichment (R)” 1.87.
`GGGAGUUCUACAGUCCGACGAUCAUCUCCACCCCCCAAGAGCCAUUGAGUGAGGUGCUUUUAGCCCUUUUGACUAAUUAGAAAUUCAGGCUGCUUGGGAUAAUGAGACAAGGACCAGAACCUCCUCCCCACCUUGGAAUUCUCGGGUGCCAA`: “RBNS enrichment (R)” 0.391.
`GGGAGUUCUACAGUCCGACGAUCUUGCACUAGCCACACAAAAUGCUCAGUCACCAUCCCCCGGGCACCGAGGGUUAAGCUGGUUUAGCAGGUCAUUGCUCAGCUUUGCUUGUCUCCCUGGGCAAGGGAAGGGGUGGAAUUCUCGGGUGCCAA` — result for “RBNS enrichment (R)”: 0.26.

Sample 4
Target: Interferon regulatory factor 3, full length, phosphomimetic (IRF3, Homo sapiens, UniProt Q14653, residues 1-427, S386D/S396D/S398D/S402D/T404D/S405D)
Technique: protein-binding microarray
Form: double-stranded DNA, one strand shown
Matrix: in vitro
Tested at: 2540 nM top
Setting: 60-bp whole probe
Together with: salmon DNA 0.4 mg/ml
Baseline: random background probes
Direction: higher = stronger binding
Shared flanks, not repeated: GCCTAGCAC … GTCTTGATTCGCTTGACGCTGCTG
Residues (chain): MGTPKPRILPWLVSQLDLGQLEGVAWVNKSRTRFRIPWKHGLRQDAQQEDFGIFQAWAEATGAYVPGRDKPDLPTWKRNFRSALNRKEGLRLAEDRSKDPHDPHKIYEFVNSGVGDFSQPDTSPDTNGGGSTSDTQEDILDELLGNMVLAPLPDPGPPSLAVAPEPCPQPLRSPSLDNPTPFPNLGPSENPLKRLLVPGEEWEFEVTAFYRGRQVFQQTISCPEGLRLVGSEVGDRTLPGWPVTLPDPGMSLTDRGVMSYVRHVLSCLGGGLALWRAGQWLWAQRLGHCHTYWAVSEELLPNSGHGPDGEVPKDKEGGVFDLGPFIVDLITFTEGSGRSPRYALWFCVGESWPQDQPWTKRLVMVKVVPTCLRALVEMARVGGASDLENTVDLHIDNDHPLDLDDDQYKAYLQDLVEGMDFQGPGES
`GACGGACTGCTTATTCTGACGTGCTAG`: “fitted relative affinity” -0.217 z-score.
For `TCAAGAATCCCCTTCTAACTGTGCTAG`, “fitted relative affinity” read 1.5 z-score.
`TCAACTTTAACTTATTCTACTGTGCTA`: “fitted relative affinity” 0.309 z-score.
`TCATGGCTCCCTATAAAACTGTGCTAG` — result for “fitted relative affinity”: -0.00604 z-score.
`TCACTTTTCATTTTCTTACTGTGCTAG` — result for “fitted relative affinity”: 4.45 z-score.
Under “fitted relative affinity”, `GACGGACAGGACACTGGGGACGTGCTA` is recorded as -0.649 z-score.
Under “fitted relative affinity”, `GACGGTCACCTTCTCCTGACGTGCTAG` is recorded as 2 z-score.
For `TTAGAACTGAGACTGGATAAGTGCTAG`, “fitted relative affinity” read -0.242 z-score.
`GAAATTCTCATTTCCAATTAGTGCTAG`: “fitted relative affinity” 3.05 z-score.
Under “fitted relative affinity”, `AACGATATCAGTTTCGAGACGTGCTAG` is recorded as 3.47 z-score.
For `TTATAACTGGGGACTGGATTAGTGCTA`, “fitted relative affinity” read -0.274 z-score.
`TTAGGACTGGGGACTGTGTTAGTGCTA`: “fitted relative affinity” -1.13 z-score.
For `GACGATATCGGTATCGAGACGTGCTAG`, “fitted relative affinity” read 1.54 z-score.
`GACGGTATCGGACTGGGGGCGTGCTAG`: “fitted relative affinity” 1.59 z-score.
`TTAGGATTCGGGTTTCGGTTAGTGCTA` — result for “fitted relative affinity”: 3.75 z-score.
`GACGGTCTCCTCCTGCTGACGTGCTAG` — result for “fitted relative affinity”: 0.702 z-score.
`TGAGGACTGGGGTATCGGTTAGTGCTA`: “fitted relative affinity” -0.414 z-score.
For `TCATTTTTACTTCGGGTACTGTGCTAG`, “fitted relative affinity” read 1.55 z-score.
Under “fitted relative affinity”, `TCATGGGTCTTGTCTGGAACTGTGCTA` is recorded as -0.853 z-score.
For `GACGGTATCGACTATCGTGACGTGCTA`, “fitted relative affinity” read 0.482 z-score.

Repeated from above (sample 1):
`GCCAGAGC` gave an E-score of -0.0119.
With `CTCCGTGC` the E-score was 0.207.
With `CCGTGATA` the E-score was 0.216.
`AATGAGTC` gave an E-score of -0.0376.
`CCAGAAGC` has an E-score of -0.167.
The E-score of `ACATTGCG` is reported as 0.153.
`CTTCTTTA` has an E-score of 0.0513.
`GCCCGAGC` has an E-score of 0.147.
`CCAACGGC` has an E-score of 0.292.
`ATCAGCCA` has an E-score of -0.097.
